Assay results from different studies.
Lines come from different studies, so protocols differ. Numbers after ± are the reported error.

Compound	tested on	assay	system	conditions	how to read	quantity	value
O=C(N/N=C/c1ccc2c(ccc[n+]2Cc2ccccc2)c1)N/N=C/c1ccc2c(ccc[n+]2Cc2ccccc2)c1	22CTA telomeric G4-DNA antiparallel	FRET melting	–	1 µM, K10 buffer, DNA 0.2 µM	–	ΔTm	11.7 ± 1 °C
CN1CCCNC(=O)c2cccc(c2)C(=O)NCCCN(C)CCCNc2cccc3c2C(=O)c2cccc(c2C3=O)NCCC1	SAS	RNA-Seq, refers to: LMLN mRNA	–	1 µM, 6 h	reference: untreated cells	log2 fold change	1.42
N#CCNC(=O)c1ccc(C2CCCCC2)cc1	–	liver microsome stability	cynomolgus liver microsomes	1 µM	–	hepatic clearance	41 mL/min/kg
CNS(=O)(=O)Nc1nccc(Cc2c(C)c3ccc(Oc4ncccc4F)cc3oc2=O)c1F	LS174T	cell viability	–	7 days	–	IC50	6.23 nM
C[n+]1ccc(/C=N/NC(=O)c2ccc3ccc4ccc(C(=O)N/N=C/c5cc[n+](C)c6ccccc56)nc4c3n2)c2ccccc21	22CTA telomeric G4-DNA antiparallel	FRET melting	–	1 µM, K10 buffer, DNA 0.2 µM	–	ΔTm	19.3 ± 0.5 °C
COC1CN([C@H]2CC[C@H]([C@@]3(C)Oc4c(Cl)cc(C(=O)NCc5c(SC)cc(C)[nH]c5=O)c(C)c4O3)CC2)C1	–	RNA-seq, refers to: PDGFRL mouse homolog	mouse, HT-1376 xenograft, whole blood	dose not given	reference: vehicle	log2 fold change	1.16
C=CC(=O)N1[C@H](c2ccc3c(c2)OCO3)c2[nH]c3ccccc3c2C[C@@H]1C(=O)N1CCN(C)CC1	human cyclin E1 N112C-3xFLAG:CDK2	co-IP with TMT proteomics, refers to: PRPF8	–	concentration not given, Q6P2Q9	reference: wild type DMSO	relative co-enrichment	136%
O=C(CCC(F)(F)F)Nc1ccc(C2CCCCC2)cc1	–	hepatocyte stability	cryopreserved human hepatocytes	1 µM	–	hepatic clearance	18 mL/min/kg
Nc1ncc(-c2cc(-c3cnn(CC(F)(F)F)c3)ncc2F)nc1C(=O)NC1CNCC(F)C1 (centres unmarked)	MAP4K5	KINOMEscan	–	1 µM	reference: DMSO control	remaining binding	99%
Cc1ncsc1-c1ccc(C(C)NC(=O)C2CC(O)CN2C(=O)C(NC(=O)CCCCCCCCCCN2CCCC(Nc3ncc(Cl)c(Nc4ccccc4S(=O)(=O)C(C)C)n3)C2)C(C)(C)C)cc1 (centres unmarked)	22Rv1	RNA-seq, refers to: MYRIP mRNA	–	concentration not given	reference: DMSO	log2 fold change	-1.02
O=C(N/N=C/c1ccc(C[n+]2ccccc2)cc1)c1cccc(C(=O)N/N=C/c2ccc(C[n+]3ccccc3)cc2)c1	22CTA telomeric G4-DNA antiparallel	FRET melting	–	1 µM, K10 buffer, DNA 0.2 µM	–	ΔTm	3.5 ± 0.3 °C
CCN(CC)CC(=O)Nc1cccc(-n2cc(-c3ccc4ccc(-c5cn(-c6cccc(NC(=O)CN(CC)CC)c6)nn5)cc4c3)nn2)c1	RCC4	PCR angiogenesis array, refers to: PECAM1	–	5 x IC50, 6 h, normoxia	reference: untreated	fold regulation	1.03
C[n+]1ccc(/C=N/NC(=O)c2cncc(C(=O)N/N=C/c3cc[n+](C)cc3)n2)cc1	22CTA telomeric G4-DNA antiparallel	FRET melting	–	1 µM, K10 buffer, DNA 0.2 µM	–	ΔTm	2.9 ± 0.4 °C
C=CC(=O)Nc1cccc(Cn2ncc3cnc(Nc4cnn(CCOC)c4)nc32)c1	MARK1 human	binding, KINOMEscan	–	100 nM	lower = stronger binding	percent of control	85%

A few entries again:
Compound	tested on	assay	system	conditions	how to read	quantity	value
COC1CN([C@H]2CC[C@H]([C@@]3(C)Oc4c(Cl)cc(C(=O)NCc5c(SC)cc(C)[nH]c5=O)c(C)c4O3)CC2)C1	–	RNA-seq, refers to: PDGFRL mouse homolog	mouse, HT-1376 xenograft, whole blood	dose not given	reference: vehicle	log2 fold change	1.16
C=CC(=O)N1[C@H](c2ccc3c(c2)OCO3)c2[nH]c3ccccc3c2C[C@@H]1C(=O)N1CCN(C)CC1	human cyclin E1 N112C-3xFLAG:CDK2	co-IP with TMT proteomics, refers to: PRPF8	–	concentration not given, Q6P2Q9	reference: wild type DMSO	relative co-enrichment	136%
